Published values of several laboratories.
Parts stem from different laboratories: compare values within a part only. Positions count from the first letter of the parent shown.

Series 1 — method: RNA Bind-n-Seq; form: RNA; medium: in vitro; concentration: 365 nM; reference: no-protein control; direction: higher = stronger binding
Target: RNA binding protein fox-1 homolog 2, RRM domain, GST-SBP tag (RBFOX2, Homo sapiens, UniProt O43251-10, residues 100-194)
Notes: natural RNA segment, single round, ends assumed
Shared flanks, not repeated: GGGAGUUCUACAGUCCGACGAUC … UGGAAUUCUCGGGUGCCAA
Construct (chain): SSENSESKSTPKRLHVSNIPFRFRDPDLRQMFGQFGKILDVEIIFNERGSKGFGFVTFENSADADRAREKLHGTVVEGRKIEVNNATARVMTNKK
| Sequence | RBNS enrichment (R) |
| --- | --- |
| GAGGUGCCCAGAUUCCUUUCCCUUUAACGCGUGUAAAGUUCUGUGCAUUUGAUUGUAAACUGUACUCGUCCGUGUGGAACUGUACACACCUUAGUUACUUCAUUUGGCUC | 0.442 |
| GCGUGCCCACAGUGGCCGGGCCAUGGCUUAGGCUUCCCUCAUGGUCACUUUGCCCAUUACGUCAGAAGUAAGUGUCUGGGUGUGGUAGUAUAAGUUUCUUAAGGAAUUGU | 0.268 |
| AAUUGUCAAUCAAUUUUACCAAUAACAAAGCCAAUAAUAUACUGUUAACAAAGACAAACUGCUUCGAGUUUUCUGUUUUCGUAGUGAGCUUAAAAUGCAUGACAGGAUAG | 5.59 |
| UUCUACUUUGUAUCCAUGACUUCUCCGAAUCAAACCACGGUAUAUGUUGUGACAAUAUCUAUGGCCACUGUUAGCCCAUUAUGUUCAUUCCAAUUAGAAGAAAUGUGAAU | 0.873 |
| AAUACUAUCAAAAACUAAGGCUAAACAUUCCUUGUGUAUCUUUAAGCAUGCUUCUCCUGAAAUUUAACUACAUUAGUAGUUGACAUUUGUAUACAUAUAUCCUAAUACAA | 2.91 |
| GGUGGGGGGAACCUGCACCUGGUAACUGGGGUGCAAACCUCUUCAAGAAGGUAACAUCAAAUAAAUAAGUCAAGCAGAGGACUUCCUGCCAAUCUCUUCUGUGAGGCAUC | 0.318 |
| UGUCACUCAGGAAUGAUUUGGAAUGUUAGGGAUAGUCACCCACCACCACAGUGCUAGGUUUCAGUGACCAGGAGCGAUGUGGAGCUGAGUCUAGUGGGAGUCCAGAGGUA | 1.91 |
| UGUCAACAGCCUUGGUUGAGGUGGGAAUGCAAUUGAUGGGAGCCUGCUGCUGUGUCCUUCUCUACUCUGUUCUGUCCGUGAGGGCUUUCCUUCUGUUGCCCCUCCCCCUC | 1.32 |
| AAUGAGAAGCCAAGCUUUAAAUAGCAAACUACAGGGUAUUAAAAGACUAACUCUUCAGUUAAGAACACUGUAGAAAUGGUAGACCAACUUAAAGUCUACCUUUUAACAAU | 0.355 |
| AAGAUUUUUGUGAGUUUUCCAUCAUGUUGGCCAUCACAUCCUGACUGAAGUCUCAAGAUUCCUGGAAGUGAAGGAAGACACAAAGCUUAAAACUCAGAUGAGAUGCUCUG | 0.378 |
| GGGCUGGCUGCAGACAGGGUGGCUGAGGGGAGGGGCAAUCGAGUCCCGAGUCCUUGGCUUAGCAUGGCCUCCUUUUCUAGAACUGCACAGAGGGGAGGAGAGAGUAGCCG | 2.21 |
| AGAUGUUCGUUUCUGGUGGAAAUUGGGCCCCUGUGUUCCUCCAGGGCAAGUCUCAGGGGAAGCUCAUGUCUUUCUGCUUUACAAAGUGCUUCAAGCGUCAGCUCCAAGUG | 0.271 |

Series 2 — method: DHFR PCA, deep sequencing; medium: yeast; together with: (+)-ABA 0.032 µM; reference: wild-type fitted maximum; direction: higher = stronger binding
Target: ABI1, truncated, D143A, DHFR fusion (Arabidopsis thaliana)
Notes: methotrexate growth selection, single substitutions
Starting sequence: PYL1, truncated, DHFR fusion (Arabidopsis thaliana); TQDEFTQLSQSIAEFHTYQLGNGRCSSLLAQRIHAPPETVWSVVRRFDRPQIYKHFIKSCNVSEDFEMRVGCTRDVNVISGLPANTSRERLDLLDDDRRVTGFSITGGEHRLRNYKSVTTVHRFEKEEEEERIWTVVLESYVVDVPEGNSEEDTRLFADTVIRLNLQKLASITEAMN
| Substitution | relative binding score [%] |
| --- | --- |
| T119E | 0.641 |
| V137H | -8.98 |
| L93Q | -0.686 |
| L169S | -0.00356 |
| R98G | -0.324 |
| L138E | 5.94 |
| M176G | 7.14 |
| Q51L | -6.97 |
| E174Y | -5.35 |
| I133W | 9.38 |
| S140V | 2.46 |
| I79D | -5.76 |

Series 3 — method: RNA Bind-n-Seq; form: RNA; medium: in vitro; concentration: 200 nM; notes: whole 134-nt RNA, ends assumed; together with: 150 mM KCl; reference: input library; direction: higher = stronger binding
Target: Fragile X messenger ribonucleoprotein 1, C-terminal low-complexity region (Fmr1, Mus musculus, UniProt P35922)
Shared flanks, not repeated: GGGAGUUCUACAGUCCGACGAUC … UGGAAUUCUCGGGUGUCAAGG
| Sequence | log2 enrichment |
| --- | --- |
| UUAGGGUCAUGUGAAGGUGGUGCGCUACUUAGUCAAAGAAGUCAAUCAGUUUCCAUCAGAUUCUGAAUGUAUGAGAUACAUAGCAACCAU | -1.48 |
| UUAGGGCCAAUCUUCGUCAAUAUGGUUUAGAGAAGUAUUACCUUGAUGUCCUGGUUUCAGAUGCAUCUAAACCUUCCUGGAGGAAGGGCA | -0.643 |
| AGUCCUGUGCUACACAUCGUAUGUACCGAAUCGGGUUUGGGUUUGGGUUUUUUUGGGAAAGUAUUAUGUUACGCCGUUCGGAUCUGCACU | 0.424 |
| UUUUCAAGGGGGCCCCAACUGGGGCCGCCUUGUAGCCUUCUUUGUCUUUGGGGCUGCACUGUGUGCUGAGAGUGUCAACAAGGAGAUGGA | -1.17 |
| CCUGUGCUACACAUCGUAUGUACCGAAUCGGGGUUUUUUUGGUUUUUUUGGGUUUUUUUGGAAAGUAUUAUGUUACGCCGUUCGGAUCUG | -0.68 |
| AGUCCUGUGCUACACAUCGUAUGUACCGAAUCAAACCCAAAUUUUUUUAAAUUUAAAAAAGUAUUAUGUUACGCCGUUCGGAUCUGCACU | -0.00881 |
| UAACUUUAGAGGAGGAUCUGAUGGAUAUGGCAGUGGACGUGGAUUUGGGGAUGGCUAUAAUGGGUAUGGAGGAGGAUCUGGAGGUGGCAA | 0.229 |
| UGGGAGGUGGAUUUUGUUAAUUUUUUUAGCUCAUUUCCAGGGGUGGGAAUUUUUUUUUAAUAUGUGUCAUGAAUAAAGUUGUUUUUGAAA | 0.259 |
| UACCAUGGUGGAAGUUCCCGUUCUCGUAGCAGUAUUUUCCAUGCAGGAAAAAGCCAAGGACUACAUGAAAACAACAUACCUGACAAUGAA | 0.891 |
| UAUGGACAAGCAUAAUGGAACAGACAGGUUUGUGAACCAGCAGUUUCAAGAGGAAAAGUUAAAUAAAUUGCAGAAGUUACUUAUUCUUUU | -1.62 |
| GGUAUUCUGCAAGUACUGUAGAUGUUAUAGAAAUGAUGGAGGAUGAUAAAGUUGAUCUGAAUUUGAUUGUUGCCCUCAUCCGAUACAUUG | -1.51 |
| CUGUGCUACACAUCGUAUGUACCGAAUCGGGGUUUUUUUGGGGUUUUUUUGGGGUUUGGGGAAAGUAUUAUGUUACGCCGUUCGGAUCUG | -0.406 |
| UCAAGUCCUGUGCUACACAUCGUAUGUACCGAAUCGGGUUGGGGUUGGGGUUGGAAAGUAUUAUGUUACGCCGUUCGGAUCUGCACUUCC | 0.231 |
| CCUGUGCUACACAUCGUAUGUACCGAAUCGGGGCCCCCCGGGCCCCCCGGGCCCCCCGGGGAAAGUAUUAUGUUACGCCGUUCGGAUCUG | -0.947 |

Mixed results
| Substance | target | assay | test system | conditions | scale | endpoint | result |
| --- | --- | --- | --- | --- | --- | --- | --- |
| PhoQ, residues 284 288 289 292 302 303 SLCLSL | PhoP, residues 12 14 15 18 19 HHYTI (Escherichia coli, UniProt P23836) | Sort-seq, item: YFP reporter | E. coli | PhoQ-PhoP variant library, together with: 10 µM Mg2+ | reference: high Mg2+ state, higher = stronger signaling | fold induction | 9.9 |

Some of these lines once more (series 3):
| Sequence | log2 enrichment |
| --- | --- |
| UAACUUUAGAGGAGGAUCUGAUGGAUAUGGCAGUGGACGUGGAUUUGGGGAUGGCUAUAAUGGGUAUGGAGGAGGAUCUGGAGGUGGCAA | 0.229 |
| UGGGAGGUGGAUUUUGUUAAUUUUUUUAGCUCAUUUCCAGGGGUGGGAAUUUUUUUUUAAUAUGUGUCAUGAAUAAAGUUGUUUUUGAAA | 0.259 |
| UACCAUGGUGGAAGUUCCCGUUCUCGUAGCAGUAUUUUCCAUGCAGGAAAAAGCCAAGGACUACAUGAAAACAACAUACCUGACAAUGAA | 0.891 |
| UAUGGACAAGCAUAAUGGAACAGACAGGUUUGUGAACCAGCAGUUUCAAGAGGAAAAGUUAAAUAAAUUGCAGAAGUUACUUAUUCUUUU | -1.62 |
